Measured values of several laboratories.
A part holds a random share of what one study measured. Substitutions count along the parent as printed.

Study 1
Target: Ras GTPase-activating protein-binding protein 1, RRM domain (G3BP1, Homo sapiens, UniProt Q13283)
UniProt Q13283, sequence (whole entry, looked up): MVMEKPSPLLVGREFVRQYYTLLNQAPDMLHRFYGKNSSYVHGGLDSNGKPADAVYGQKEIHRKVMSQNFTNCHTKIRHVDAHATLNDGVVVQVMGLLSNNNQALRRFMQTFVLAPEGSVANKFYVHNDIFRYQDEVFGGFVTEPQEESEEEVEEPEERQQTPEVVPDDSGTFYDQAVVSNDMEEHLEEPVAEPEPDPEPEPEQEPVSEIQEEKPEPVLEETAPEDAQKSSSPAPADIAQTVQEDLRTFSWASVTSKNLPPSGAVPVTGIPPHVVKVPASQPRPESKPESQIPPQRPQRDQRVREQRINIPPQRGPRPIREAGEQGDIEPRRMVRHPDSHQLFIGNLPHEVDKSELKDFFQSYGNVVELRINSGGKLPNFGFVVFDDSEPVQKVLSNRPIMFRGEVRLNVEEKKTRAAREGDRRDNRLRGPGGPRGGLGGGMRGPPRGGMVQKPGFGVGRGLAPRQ
Technique: RNA Bind-n-Seq
Molecule type: RNA
Sample: in vitro
Tested at: 1 µM
Setting: whole 134-nt RNA, ends assumed
Added: 150 mM KCl
Relative to: input library
Reading: higher = stronger binding
Constant ends, left off below: GGGAGUUCUACAGUCCGACGAUC … UGGAAUUCUCGGGUGUCAAGG
| Sequence | log2 enrichment |
| --- | --- |
| ACCAUGCAGGUGGGCAUCUUUGGGAAGUGGGGCAAGGGGGGGAUAGGGAGGAAAGUAACACUUUGGGAACAGGUGGUCCCAGGUCGUUUC | -0.364 |
| ACCAUGCAGGUGGGCAUCUUUGGGAAAAGGGGCAAGGGGGGGAUAGGGAGGGGGGUAACACUUUGGGAACAGGUGGUCCCAGGUCGUUUC | -0.35 |
| CCUCAAGUCCUGUGCUACACAUCGUAUGUACCGAAUCGGAGGAGGAAAAAGGAAAGUAUUAUGUUACGCCGUUCGGAUCUGCACUUCCAG | -0.145 |
| CUCAAGUCCUGUGCUACACAUCGUAUGUACCGAAUCGGUUUUUGGAAAGGAGGAAAGUAUUAUGUUACGCCGUUCGGAUCUGCACUUCCA | -0.306 |
| AAGUCCUGUGCUACACAUCGUAUGUACCGAAUCAAACCCCCAAACCCAAACCCAAAAAAGUAUUAUGUUACGCCGUUCGGAUCUGCACUU | -0.233 |
| CACAGACAACACGCACCCACACAGACACAGAGGGAAGGGGUUGGGAUGGGGACAGGGUGCACAGCAGGGCGGGGUAGGACCCCAGGCCCU | -0.304 |
| UGGCCCUGGUGGCAUGCGGGGAGGAAGAGGUGGCCUCAUGGAUCGUGGUGGUCCCGGUGGAAUGUUCAGAGGUGGGCGUGGUGGAGACAG | 2.05 |
| GUCCUGUGCUACACAUCGUAUGUACCGAAUCGGGAAAAAGGGUUUUUGGGAAAAAGGGAAAGUAUUAUGUUACGCCGUUCGGAUCUGCAC | 0.099 |
| UGGCCCUGGUUGCAUGCGGGGAGGAAGAGGUGGCCUCAUGGAUCGUGGUGGUCCCGGUGGAAUGUUCAGAGGUGGCCGUGGUGGAGACAG | 0.977 |
| UGGCCCUCGUGGCAUGCGGGGAGGAAGAGGUGGCCUCAUGGAUCGUGGUGGUCCCGGUGGAAUGUUCAGAGGUGGCCGUGGUGGAGACAG | 0.89 |
| GCAGGAAGUAAAAACAAAUGGAAAUGCUUCGGAUAGUGGCAGGGGUGGGGGUUGCUAAGGAAAGGGUGGGAUGGGAGUGGGUAAAGCGUU | 1.27 |
| UCCUAGUCCUAGGAAAACUCCAGUUGCCAGUGAUCAACGCCGUAGGUCCUGCAAAACAGCCCCUGCUUCCAGCAGCAAAUCUCAGACAGA | -0.0706 |
| CCUCAAGUCCUGUGCUACACAUCGUAUGUACCGAAUCGGGGUGGUGGGUGGGGAAAGUAUUAUGUUACGCCGUUCGGAUCUGCACUUCCA | 0.19 |
| AAGUCCUGUGCUACACAUCGUAUGUACCGAAUCGGGUUUUUUUGGGAGGGAAAGGGAAAGUAUUAUGUUACGCCGUUCGGAUCUGCACUU | 0.456 |

Study 2
Target: Histone acetyltransferase KAT6A, both winged helices, GST fusion (KAT6A, Homo sapiens, UniProt Q92794, residues 1-181)
Technique: protein binding microarray
Molecule type: double-stranded DNA, one strand shown
Sample: in vitro
Tested at: not given
Setting: 8-mer, flanks averaged, mean of 2 arrays, mostly near background
Relative to: not given
Reading: higher = stronger binding
Residues (chain): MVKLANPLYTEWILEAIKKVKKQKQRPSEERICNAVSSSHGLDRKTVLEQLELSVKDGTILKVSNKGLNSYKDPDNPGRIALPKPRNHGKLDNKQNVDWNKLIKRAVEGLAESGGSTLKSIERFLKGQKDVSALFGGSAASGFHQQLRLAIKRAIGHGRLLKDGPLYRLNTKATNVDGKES
| Sequence | E-score |
| --- | --- |
| CGGGAGCC | 0.135 |
| CCTTCTAC | -0.117 |
| AAATATCT | -0.158 |
| CCCAACTC | -0.166 |
| AGCTAGGG | -0.157 |
| CAGGTGCG | 0.104 |
| ATGTCGCG | 0.285 |
| AAGTTGAT | -0.0583 |
| AGAGAGGG | -0.109 |
| ATACACCC | 0.0336 |
| CCTAAATC | -0.112 |
| GAGGGACA | -0.0973 |
| ACCGGCGT | 0.255 |
| CATCATTA | -0.0193 |
| CCATTCGG | -0.0989 |
| ATGCAAGA | -0.271 |
| ATGAGCGG | 0.162 |
| CCCGTTCA | 0.0705 |
| CATTTCTA | 0.0263 |

Study 3
Cell line: yeast with cyclin F-Cln2 chimera
Read-out: cell growth
Mode: binder
Technique: competitive growth deep sequencing
Molecule type: peptide
Tested at: concentration not given
Setting: peptide tiling library
Reading: direction not given
| Sequence | growth enrichment score |
| --- | --- |
| ELGMEHCEKFEISETS | -0.096 |
| SPREGHMMDALYAQVK | 0.75 |
| GPVKLEFDVSDGAT | 1.15 |
| YLYLLLTQSLWCRV | 1.81 |
| SFLIEYEFLIPPSLKP | 0.0398 |
| PPTFLSTGEIHAFLSS | 0.376 |
| NESHLDKEHDAVEVAD | 0.0304 |
| KVRRNLFNQELLSP | 3.34 |
| NRLLKLFTRCLTPLVP | 1.76 |
| VSRNLRSSLKSSLHTL | 0.532 |
| ATNSSHTDAHEILVSD | -0.168 |
| RTEALEQGGLPKKLIF | 1.76 |
| NLEPNAEFDKRTEFIT | 0.659 |
| HRRRLLFACSPPPASQ | 3.8 |
| LAKRALKYTD | 1.74 |
| RRRRLLFWDKETQI | 2.65 |

Study 4
Target: CREB3L2, bZIP domain (human)
Technique: DHFR protein complementation
Sample: yeast
Setting: single substitutions, most at no-binding floor
Relative to: wild-type JUN-FOS pair
Reading: higher = stronger binding
Starting sequence: JUN, bZIP domain (human); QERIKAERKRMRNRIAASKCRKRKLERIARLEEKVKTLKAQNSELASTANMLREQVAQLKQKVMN; partner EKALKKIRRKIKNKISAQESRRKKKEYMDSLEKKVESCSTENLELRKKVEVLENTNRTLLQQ
| Variant | binding fitness [natural log] |
| --- | --- |
| Q41H | -1.39 |
| M51F | -1.34 |
| A46K | -1.52 |
| L59H | -1.36 |
| A49E | -1.51 |
| R30C | -1.61 |
| K36H | -1.55 |
| L45S | -1.57 |
| S43G | -1.37 |
| Q41T | -1.54 |
| K34G | -1.48 |
| T48K | -1.29 |
| K39F | -1.58 |
| Q41A | -1.29 |
| A40D | -1.44 |
| V35E | -1.53 |
| Q55G | -1.48 |
| Q55R | -1.41 |
| S43K | -1.44 |
| A29C | -1.28 |
| K39S | -1.51 |
| T37A | -1.36 |
| A29S | -1.3 |
| A29P | -1.52 |
| L59W | -1.54 |

Study 5
Target: UBE2M UBC core domain (UniProt P61081)
Technique: yeast two-hybrid
Sample: yeast
Setting: mostly zero background
Relative to: not given
Reading: higher = stronger interaction
B1: TRIM2 RING domain (UniProt Q9C040); chain VRQIDKQFLICSICLERYKNPKVLPCLHTFCERCLQNYIPAHSLTLSCPVCRQTSILPEKGV
B2: MARCHF2 RING domain (UniProt Q9P0N8); chain RLLSTVIRALDTPSDGPFCRICHEGANGECLLSPCGCTGTLGAVHKSCLEKWLSSSNTSYCELCHTEFAVEKRPRPLTEWL
B3: CBLL1 RING domain (UniProt Q75N03); chain GEKDDTPVHFCDKCGLPIKIYGRMIPCKHVFCYDCAILHEKKGDKMCPGCSDPVQRIEQCT
B4: TRIM68 RING domain (UniProt Q6AZZ1); chain LVEAIVEEVACPICMTFLREPMSIDCGHSFCHSCLSGLWEIPGESQNWGYTCPLCRAPVQPRNLRP
B5: PJA2 RING domain (UniProt O43164); chain DHTAIGQEQCCPICCSEYIKDDIATELPCHHFFHKPCVSIWLQKSGTCPVCRRHFPPAVIEA
B6: TRIM47 RING domain (UniProt Q96LD4); chain MDGSGPFSCPICLEPLREPVTLPCGHNFCLACLGALWPHRGASGAGGPGGAARCPLCQEPFPDGLQLR
B7: RNF115 RING domain (UniProt Q9Y4L5); chain TQEQVDMGLECPVCKEDYTVEEEVRQLPCNHFFHSSCIVPWLELHDTCPVCRKSLNGEDSTR
B8: UBE4B RING domain (UniProt O95155); chain KNARAEIDYSDAPDEFRDPLMDTLMTDPVRLPSGTIMDRSIILRHLLNSPTDPFNRQTLTESMLEPVPELKEQIQAWMREKQNSDH
Construct (chain): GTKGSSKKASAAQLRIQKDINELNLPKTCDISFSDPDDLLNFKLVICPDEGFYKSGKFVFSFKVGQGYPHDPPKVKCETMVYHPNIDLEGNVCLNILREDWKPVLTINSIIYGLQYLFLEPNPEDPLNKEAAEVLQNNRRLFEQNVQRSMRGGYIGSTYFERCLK
| Sequence | lacZ reporter activity |
| --- | --- |
| B1 (TRIM2 RING domain) | 0 |
| B2 (MARCHF2 RING domain) | 0 |
| B3 (CBLL1 RING domain) | 0 |
| MEEMEEELKCPVCGSFYREPIILPCSHNLCQACARNILVQTPESESPQSHRAAGSGVSDY (TRIM9 RING domain (UniProt Q9C026)) | 0 |
| PLRRLQEEKLCKICMDRHIAVVFIPCGHLVTCKQCAEAVDRCPMCSAVIDFKQRVF (BIRC8 RING domain (UniProt Q96P09)) | 0 |
| B4 (TRIM68 RING domain) | 0 |
| AAQLLEEKLTCAICLGLYQDPVTLPCGHNFCGACIRDWWDRCGKACPECREPFPDGAELR (TRIM65 RING domain (UniProt Q6PJ69)) | 0 |
| VPADASPDSKCPICLDRFDNVSYLDRCLHKFCFRCVQEWSKNKAECPLCKQPFDSIFHSV (TOPORS RING domain (UniProt Q9NS56)) | 0 |
| KITELNPHLMCALCGGYFIDATTIVECLHSFCKTCIVRYLETNKYCPMCDVQVHKTRPLL (PCGF2 RING domain (UniProt P35227)) | 0 |
| B5 (PJA2 RING domain) | 0 |
| FLSKVEETFQCICCQELVFRPITTVCQHNVCKDCLDRSFRAQVFSCPACRYDLGRSYAMQ (UHRF1 RING domain (UniProt Q96T88)) | 0 |
| B6 (TRIM47 RING domain) | 0 |
| EIKDYKARLTCPCCNMRKKDAVLTKCFHVFCFECVKTRYDTRQRKCPKCNAAFGANDFHR (RNF20 RING domain (UniProt Q5VTR2)) | 0 |
| B7 (RNF115 RING domain) | 0 |
| B8 (UBE4B RING domain) | 0 |
| SNNDLASLFECPVCFDYVLPPILQCQSGHLVCSNCRPKLTCCPTCRGPLGSIRNLA (SIAH1 RING domain (UniProt Q8IUQ4)) | 0 |

Study 6
Target: ABI1, truncated, D143A, DHFR fusion (Arabidopsis thaliana)
Technique: DHFR PCA, deep sequencing
Sample: yeast
Setting: methotrexate growth selection, single substitutions
Added: (+)-ABA 0 µM
Relative to: wild-type fitted maximum
Reading: higher = stronger binding
Starting sequence: PYL1, truncated, DHFR fusion (Arabidopsis thaliana); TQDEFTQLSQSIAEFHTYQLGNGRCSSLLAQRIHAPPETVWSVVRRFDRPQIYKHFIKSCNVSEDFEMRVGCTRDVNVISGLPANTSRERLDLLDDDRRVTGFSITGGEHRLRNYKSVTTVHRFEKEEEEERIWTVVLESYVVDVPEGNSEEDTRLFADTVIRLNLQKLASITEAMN
| Variant | relative binding score [%] |
| --- | --- |
| I33H | 6.6 |
| V143Q | 0.826 |
| Q167P | 3.87 |
| K58L | 1.06 |
| A84V | 29.9 |
| V76I | 35.7 |
| F56H | 0.864 |
| A170N | -10.7 |
| Q51E | 13.2 |
| I79L | 7.07 |
| R113E | 9.68 |
| S80T | 40.3 |
| P36N | 7.84 |
| V78Y | 86.3 |
| V78M | 61 |
| V100Y | -9.36 |
| Y18E | 3.3 |
| H16T | 0.281 |
| S87A | 11.1 |
| L138T | 3.23 |
| G21Q | 29.3 |
| G107Y | 1.12 |
| E89N | -1.02 |
| V161M | 72.4 |

For quick reference, copied from above (study 2):
| Sequence | E-score |
| --- | --- |
| CCCAACTC | -0.166 |
| AGCTAGGG | -0.157 |
| CAGGTGCG | 0.104 |
| ATGTCGCG | 0.285 |
| AAGTTGAT | -0.0583 |
| AGAGAGGG | -0.109 |
| ATACACCC | 0.0336 |
| CCTAAATC | -0.112 |
| GAGGGACA | -0.0973 |
| ACCGGCGT | 0.255 |
| CATCATTA | -0.0193 |
| CCATTCGG | -0.0989 |
| ATGCAAGA | -0.271 |
| ATGAGCGG | 0.162 |
| CCCGTTCA | 0.0705 |
| CATTTCTA | 0.0263 |
